Measurements collected from several papers.
A part holds a random share of what one study measured. Positions count from the first letter of the parent shown.
UniProt Q9BUB5, sequence (whole entry, looked up): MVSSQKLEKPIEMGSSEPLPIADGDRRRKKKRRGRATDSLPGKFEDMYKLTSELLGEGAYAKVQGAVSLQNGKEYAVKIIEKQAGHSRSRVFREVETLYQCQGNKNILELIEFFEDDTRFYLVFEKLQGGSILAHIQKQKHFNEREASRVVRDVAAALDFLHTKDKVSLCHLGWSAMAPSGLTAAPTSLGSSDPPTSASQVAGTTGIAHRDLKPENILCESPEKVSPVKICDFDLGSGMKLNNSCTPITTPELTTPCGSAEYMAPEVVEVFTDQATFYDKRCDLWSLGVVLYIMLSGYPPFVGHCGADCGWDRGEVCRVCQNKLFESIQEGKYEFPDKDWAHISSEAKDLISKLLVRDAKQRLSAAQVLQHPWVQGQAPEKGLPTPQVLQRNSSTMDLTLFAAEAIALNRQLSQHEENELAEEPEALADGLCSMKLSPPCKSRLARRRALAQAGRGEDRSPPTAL

Set 1
Target: NFE2, bZIP domain (human)
Technique: DHFR protein complementation
Medium: yeast
Setting: single substitutions, most at no-binding floor
Relative to: wild-type JUN-FOS pair
Direction: higher = stronger binding
Starting sequence: JUN, bZIP domain (human); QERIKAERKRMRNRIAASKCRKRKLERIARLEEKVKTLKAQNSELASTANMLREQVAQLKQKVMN; partner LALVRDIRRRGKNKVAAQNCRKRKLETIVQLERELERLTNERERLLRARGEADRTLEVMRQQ
For `S43K`, the binding fitness was -1.49 natural log.
`A29N` gave a binding fitness of -1.54 natural log.
`A29V` has a binding fitness of -1.44 natural log.
For `Q55L`, the binding fitness was -1.44 natural log.
The binding fitness of `Q55N` is reported as -1.43 natural log.
The binding fitness of `Q41L` is reported as -1.52 natural log.
`V35P` has a binding fitness of -1.52 natural log.
`A49P` gave a binding fitness of -1.57 natural log.

Set 2
Target: Ras GTPase-activating protein-binding protein 1, full length (G3BP1, Homo sapiens, UniProt Q13283)
UniProt Q13283, sequence (whole entry, looked up): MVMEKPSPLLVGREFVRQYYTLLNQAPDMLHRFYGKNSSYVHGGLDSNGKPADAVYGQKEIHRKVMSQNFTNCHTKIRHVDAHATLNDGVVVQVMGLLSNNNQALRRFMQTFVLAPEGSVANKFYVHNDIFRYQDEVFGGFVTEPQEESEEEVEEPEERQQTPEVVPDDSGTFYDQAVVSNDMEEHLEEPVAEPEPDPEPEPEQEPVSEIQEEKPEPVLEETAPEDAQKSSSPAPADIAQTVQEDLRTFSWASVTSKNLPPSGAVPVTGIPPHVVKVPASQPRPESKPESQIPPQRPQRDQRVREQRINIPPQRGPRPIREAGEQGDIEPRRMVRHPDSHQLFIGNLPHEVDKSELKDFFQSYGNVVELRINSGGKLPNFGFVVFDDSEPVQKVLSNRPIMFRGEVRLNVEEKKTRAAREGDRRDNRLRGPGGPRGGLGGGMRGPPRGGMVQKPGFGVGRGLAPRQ
Technique: RNA Bind-n-Seq
Molecule type: RNA
Medium: in vitro
Tested at: 200 nM
Setting: whole 134-nt RNA, ends assumed
Together with: 150 mM LiCl
Relative to: input library
Direction: higher = stronger binding
Each molecule: 7-deaza-guanosine replaces G
Constant ends, left off below: GGGAGUUCUACAGUCCGACGAUC … UGGAAUUCUCGGGUGUCAAGG
`CUCAAGUCCUGUGCUACACAUCGUAUGUACCGAAUCGGGCGGGGCGGGGCGGGAAAGUAUUAUGUUACGCCGUUCGGAUCUGCACUUCCA` gave a log2 enrichment of 0.113.
The log2 enrichment of `CAAGUCCUGUGCUACACAUCGUAUGUACCGAAUCGGUUUGGGUUUGGGGUUUGGGAAAGUAUUAUGUUACGCCGUUCGGAUCUGCACUUC` is reported as -1.18.
With `AAGUCCUGUGCUACACAUCGUAUGUACCGAAUCGGUUUGGGGUUUGGGGUUUGGGGAAAGUAUUAUGUUACGCCGUUCGGAUCUGCACUU` the log2 enrichment was -1.39.
With `ACCAUGCAGGUGGGCAUCUUUGGGAAGUGGGGCAAGGAAAGGAUAGGGAGGGGGGUAACACUUUGGGAACAGGUGGUCCCAGGUCGUUUC` the log2 enrichment was 0.277.
With `AGUUCUAUCUCUGGGGUGACUGCCGCAUAUAACCGAGAACAGCUGUGGCUGGCCAAUGAAGGCCUGAUCACCAGGCUGCAGGCUCGCUGC` the log2 enrichment was 0.338.
With `UCCUCAAGUCCUGUGCUACACAUCGUAUGUACCGAAUCGGGAGGAGGGGAGGAAAGUAUUAUGUUACGCCGUUCGGAUCUGCACUUCCAG` the log2 enrichment was -0.359.
`CAAGUCCUGUGCUACACAUCGUAUGUACCGAAUCGGGUGGGAAAAAAAGGGUGGGAAAGUAUUAUGUUACGCCGUUCGGAUCUGCACUUC` has a log2 enrichment of -0.169.
`CUGUGCUACACAUCGUAUGUACCGAAUCGGGAAAAAAAGGGGAAAAAAAGGGAAAAAAAGGGAAAGUAUUAUGUUACGCCGUUCGGAUCU` gave a log2 enrichment of 0.304.

Set 3
Target: Prothrombin, mature alpha-thrombin (F2, Homo sapiens, UniProt P00734)
Technique: aptamer microarray, sandwich
Molecule type: DNA with 2'F-ANA
Medium: in vitro
Tested at: 200 nM
Setting: whole 15-mer aptamer, many near background
Together with: Cy3 exosite-II aptamer, 400 nM
Direction: higher = stronger binding
Strand: GGTTGGTGTGGTTGG
`2'F-ANA at 4 7 9 10 11 12 13 15`: “mean fluorescence intensity” 92 a.u.
`2'F-ANA at 3 7 11`: “mean fluorescence intensity” 1190 a.u.
Under “mean fluorescence intensity”, `2'F-ANA at 1 3 4 5 6 7 15` is recorded as 60.2 a.u.
`2'F-ANA at 1 3 6 7 8 9 10 15`: “mean fluorescence intensity” 199 a.u.
`2'F-ANA at 2 4 5 8 9 12 14 15` — result for “mean fluorescence intensity”: 55.3 a.u.
For `2'F-ANA at 1 2 3 4 5 14 15`, “mean fluorescence intensity” read 48.4 a.u.
`2'F-ANA at 1 3 6 9 15`: “mean fluorescence intensity” 272 a.u.
For `2'F-ANA at 1 3 4 5 6 7 8 9 10 12 13`, “mean fluorescence intensity” read 63.8 a.u.

Further values, each from its own experiment
The remaining activity of `C[C@@H]1CCN(C(=O)CC#N)C[C@@H]1N(C)c1ncnc2[nH]ccc12` is reported as 89.9% (MAP kinase-interacting serine/threonine-protein kinase 1 (MKNK1, Homo sapiens, UniProt Q9BUB5); enzyme activity, inhibitor; 0.5 µM; relative to: control).

Some of these lines once more (set 1):
`A29V` has a binding fitness of -1.44 natural log.
The binding fitness of `Q41L` is reported as -1.52 natural log.
